Assay results of several laboratories.
Lines come from different studies, so protocols differ.
Chain of UniProt Q9H0K1 (whole entry, looked up): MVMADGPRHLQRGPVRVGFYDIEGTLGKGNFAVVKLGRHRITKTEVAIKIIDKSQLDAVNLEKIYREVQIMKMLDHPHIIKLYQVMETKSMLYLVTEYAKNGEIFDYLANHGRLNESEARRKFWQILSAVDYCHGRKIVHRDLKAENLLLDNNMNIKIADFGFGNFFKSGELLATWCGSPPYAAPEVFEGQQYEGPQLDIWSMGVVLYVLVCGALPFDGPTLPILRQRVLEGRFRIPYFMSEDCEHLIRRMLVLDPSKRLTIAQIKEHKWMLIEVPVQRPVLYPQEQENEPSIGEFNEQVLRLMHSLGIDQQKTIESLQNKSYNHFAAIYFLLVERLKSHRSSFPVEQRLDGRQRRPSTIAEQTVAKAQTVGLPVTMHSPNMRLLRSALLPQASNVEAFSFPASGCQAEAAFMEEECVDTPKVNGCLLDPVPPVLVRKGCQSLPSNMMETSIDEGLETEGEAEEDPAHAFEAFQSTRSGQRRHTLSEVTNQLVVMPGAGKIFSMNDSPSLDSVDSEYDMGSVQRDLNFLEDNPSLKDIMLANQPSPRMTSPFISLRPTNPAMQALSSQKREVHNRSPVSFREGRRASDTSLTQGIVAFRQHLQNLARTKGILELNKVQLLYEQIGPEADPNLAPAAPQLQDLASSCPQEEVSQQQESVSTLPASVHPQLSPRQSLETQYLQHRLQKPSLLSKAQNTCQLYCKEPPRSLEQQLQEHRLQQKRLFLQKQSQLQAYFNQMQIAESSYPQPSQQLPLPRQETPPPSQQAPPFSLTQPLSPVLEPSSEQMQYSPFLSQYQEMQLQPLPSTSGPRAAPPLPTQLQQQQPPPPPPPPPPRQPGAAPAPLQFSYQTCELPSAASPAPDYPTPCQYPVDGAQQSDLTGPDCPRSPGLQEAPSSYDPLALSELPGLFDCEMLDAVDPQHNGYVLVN
Chain of UniProt Q13523 (whole entry, looked up): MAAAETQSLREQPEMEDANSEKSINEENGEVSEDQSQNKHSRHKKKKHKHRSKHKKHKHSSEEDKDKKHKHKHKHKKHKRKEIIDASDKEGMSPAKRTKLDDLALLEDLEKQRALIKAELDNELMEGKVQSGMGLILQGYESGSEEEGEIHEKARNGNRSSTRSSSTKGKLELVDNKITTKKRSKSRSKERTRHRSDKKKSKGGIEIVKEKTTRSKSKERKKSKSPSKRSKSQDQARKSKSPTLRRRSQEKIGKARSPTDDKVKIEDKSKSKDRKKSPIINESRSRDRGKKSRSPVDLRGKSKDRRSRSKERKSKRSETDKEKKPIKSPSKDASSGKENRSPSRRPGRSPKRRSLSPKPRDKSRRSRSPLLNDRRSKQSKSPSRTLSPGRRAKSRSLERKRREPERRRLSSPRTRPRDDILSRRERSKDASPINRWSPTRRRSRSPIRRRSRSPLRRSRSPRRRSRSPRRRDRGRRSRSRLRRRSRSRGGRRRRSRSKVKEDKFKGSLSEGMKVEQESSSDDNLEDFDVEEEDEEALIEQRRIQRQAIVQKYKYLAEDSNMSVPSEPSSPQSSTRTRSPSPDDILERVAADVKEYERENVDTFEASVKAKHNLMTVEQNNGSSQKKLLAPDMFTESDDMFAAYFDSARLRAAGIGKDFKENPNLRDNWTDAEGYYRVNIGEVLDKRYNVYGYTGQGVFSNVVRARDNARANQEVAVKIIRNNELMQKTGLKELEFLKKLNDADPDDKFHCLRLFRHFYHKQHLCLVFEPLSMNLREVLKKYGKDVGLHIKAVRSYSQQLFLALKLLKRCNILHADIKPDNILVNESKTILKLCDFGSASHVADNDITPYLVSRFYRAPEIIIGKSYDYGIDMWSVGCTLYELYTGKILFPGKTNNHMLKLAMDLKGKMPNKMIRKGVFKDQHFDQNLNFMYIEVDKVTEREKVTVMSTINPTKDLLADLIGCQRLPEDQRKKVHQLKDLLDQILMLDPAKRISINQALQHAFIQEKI
Chain of UniProt Q9BVS4 (whole entry, looked up): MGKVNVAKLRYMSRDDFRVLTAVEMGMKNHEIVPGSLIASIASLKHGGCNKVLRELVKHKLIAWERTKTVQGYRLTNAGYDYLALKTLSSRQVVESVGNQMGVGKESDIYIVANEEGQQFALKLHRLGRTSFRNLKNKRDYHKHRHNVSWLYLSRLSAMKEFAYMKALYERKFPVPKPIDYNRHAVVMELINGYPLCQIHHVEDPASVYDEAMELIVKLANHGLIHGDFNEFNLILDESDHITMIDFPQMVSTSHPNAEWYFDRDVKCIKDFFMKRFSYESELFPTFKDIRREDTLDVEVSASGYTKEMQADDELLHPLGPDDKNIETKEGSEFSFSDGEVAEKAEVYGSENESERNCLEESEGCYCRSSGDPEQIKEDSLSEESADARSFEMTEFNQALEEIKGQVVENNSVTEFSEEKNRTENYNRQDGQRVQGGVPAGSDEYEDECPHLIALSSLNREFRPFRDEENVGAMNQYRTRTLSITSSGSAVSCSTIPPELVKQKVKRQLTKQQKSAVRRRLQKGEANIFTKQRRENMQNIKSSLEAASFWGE
Chain of UniProt Q15759 (whole entry, looked up): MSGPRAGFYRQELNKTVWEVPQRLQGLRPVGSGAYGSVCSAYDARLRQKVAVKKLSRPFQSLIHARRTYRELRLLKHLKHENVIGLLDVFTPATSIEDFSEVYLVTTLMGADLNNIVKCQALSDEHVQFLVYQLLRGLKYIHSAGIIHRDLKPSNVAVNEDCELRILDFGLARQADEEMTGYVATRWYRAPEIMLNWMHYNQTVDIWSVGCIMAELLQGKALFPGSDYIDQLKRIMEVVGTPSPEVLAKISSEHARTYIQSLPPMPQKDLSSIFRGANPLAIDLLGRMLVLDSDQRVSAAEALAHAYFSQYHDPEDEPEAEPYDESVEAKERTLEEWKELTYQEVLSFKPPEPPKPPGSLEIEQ

| SMILES | target or system | assay | setting | endpoint | value |
| --- | --- | --- | --- | --- | --- |
| S=C(Nc1ccccc1)Nc1ccc(Oc2nnc(-c3ccc(Cl)cc3)c3ccccc23)cc1 | MCF7 | cell growth or viability, MTT | 1.25 µM, 24 h | viability | 56.7% |
| Cc1ccc(C(CS(=O)(=O)c2ccccc2)=NNc2nc(C)c(N=Nc3cccc(C)c3)s2)cc1 | WM 266-4 | cell growth or viability, MTT | 0.4 µM, 48 h | viability | 60.9% |
| COc1ccc(CNC[C@](O)(COCc2ccc(F)cc2)[C@@H]2CC[C@@H](C)C[C@H]2OCc2ccc(F)cc2)cc1 | HeLa | cell growth or viability, MTT | 10 µM, 72 h | inhibition | 93.4% |
| Cc1c(Cc2ccccc2)c(=O)oc2c(C)c(OCC(=O)NN=Cc3ccc([N+](=O)[O-])cc3)ccc12 | PC-3 | cell growth or viability, MTT | 1000 µg/mL | viability | 4.06% |
| OCc1ccc(-c2nn(Cc3ccccc3)c3cnccc23)o1 | RBE | cell growth or viability, ATP luminescence | 46 µM, 72 h | inhibition | 17% |
| CN(O)N=Nc1ccc(S(=O)(=O)Nc2nccs2)cc1 |  | ABTS scavenging | 300 µg/mL | inhibition | 95.8% |
| COc1cc(C(=O)O)ccc1NC(=O)[C@@H]1N[C@@H](CC(C)(C)C)[C@](C#N)(c2ccc(Cl)cc2F)[C@H]1c1cccc(Cl)c1F | MB002 | cell growth or viability | 7 days | IC50 | 0.0134 µM |
| Cc1[nH]c(C)c(-c2ccc(-c3ccc(Cl)cc3)cc2)c(=O)c1Cl | HEK293 | cell growth or viability |  | IC50 | > 10 µM |
| CC[C@]1(O)C[C@@H]2CN(CCc3c([nH]c4ccccc34)[C@@](C(=O)OC)(c3cc4c(cc3OC)N(C)[C@H]3[C@@](O)(C(=O)OC)[C@H](OC(C)=O)[C@]5(CC)C=CCN6CC[C@]43[C@@H]65)C2)C1 | MB002 | cell growth or viability | 7 days | IC50 | 0.0254 µM |
| C=CC(=O)N1CCC(COCC(=O)N2CCN(c3nc(-c4cnc(N)nc4C(F)F)nc(N4CCOC[C@@H]4C)n3)CC2)CC1 | RIOK2 (Homo sapiens, UniProt Q9BVS4) | binding, competition with immobilised ligand | 1 µM | remaining binding | 100% |
| O=C(Nc1ccc(Oc2nnc(-c3ccc(Cl)cc3)c3ccccc23)cc1)c1cccc([N+](=O)[O-])c1 | MCF7 | cell growth or viability, MTT | 78 nM, 24 h | viability | 95.7% |
| O=C(Nc1ccc(OC2CCN(Cc3ccc(F)cc3)C2)c(Cl)c1)c1cccs1 (stereo not drawn) | HEK293 | cell growth or viability |  | IC50 | > 10 µM |
| Cc1c(Cc2ccccc2)c(=O)oc2c(C)c(OCC(=O)NN=Cc3ccco3)ccc12 | PC-3 | cell growth or viability, MTT | 62.5 µg/mL | viability | 20.1% |
| CN(C)CCNC(=O)c1ccc(-c2nc3ccc4[nH]ncc4c3c3c2CCCC3)cc1 | Kasumi 1 | cell growth or viability | 72 h | GI50 | 0.351 µM |
| CCNC(=S)NNC(=O)COc1ccc2c(C)c(CC)c(=O)oc2c1C | PC-3 | cell growth or viability, MTT | 250 µg/mL | viability | 11.7% |
| Nc1ncnc2c1c(/C=C/C(=O)N1CCOCC1)nn2CC1CCCC1 | FLO-1 | cell growth or viability, resazurin | 5 days | EC50 | > 30 µM |
| C=C(C)[C@@H]1CC[C@@H](C)C[C@H]1OCc1ccccc1 | HeLa | cell growth or viability, MTT | 30 µM, 72 h | inhibition | 59.6% |
| CCCCC(=O)Nc1ccc(-c2ccc3ncn(CCC)c(=O)c3c2)cn1 | PRPF4B (Homo sapiens, UniProt Q13523) | binding, competition with immobilised ligand | 0.5 µM | remaining binding | 74% |
| Cc1cccc(N(O)N=Nc2ccc(S(=O)(=O)Nc3cc(C)on3)cc2)c1 |  | ABTS scavenging | 240 µg/mL | inhibition | 81.4% |
| CC(=NNC(=S)Nc1ccccc1)c1ccc(Nc2nnc(-c3ccc(Cl)cc3)c3ccccc23)cc1 | MCF7 | cell growth or viability, MTT | 0.312 µM, 24 h | viability | 99.8% |
| CNc1ncc2c(/C=C/C(=O)N3CCC(COC)CC3)nn(Cc3cccc(C)c3)c2n1 | FLO-1 | cell growth or viability, resazurin | 5 days | EC50 | > 30 µM |
| CC(=NNC(=O)c1ccc(N)cc1)c1ccc(Nc2nnc(-c3ccc(Cl)cc3)c3ccccc23)cc1 | MCF7 | cell growth or viability, MTT | 0.312 µM, 24 h | viability | 87% |
| CSc1ccc(C=CC(=O)NC(=O)c2ccccc2O)cc1 | HEK293 | cell growth or viability |  | IC50 | > 10 µM |
| CC(=NNC(=O)c1ccccc1Cl)c1ccc(Nc2nnc(-c3ccc(Cl)cc3)c3ccccc23)cc1 | MCF7 | cell growth or viability, MTT | 5 µM | cell death | 91.7% |
| COc1cc(-c2cncc3c2CN(C)Cc2cc(N4CCNCC4)ccc2-3)cc(OC)c1OC | SIK2 (Homo sapiens, UniProt Q9H0K1) | enzyme activity, inhibitor | 1 µM | remaining activity | 79% |
| COc1ccccc1Cn1nc(-c2ccc(CO)o2)c2ccccc21 | RBE | cell growth or viability, ATP luminescence | 46 µM, 72 h | inhibition | 74% |
| CC(=NNC(=O)c1ccccc1O)c1ccc(Nc2nnc(-c3ccc(Cl)cc3)c3ccccc23)cc1 | MCF7 | cell growth or viability, MTT | 0.625 µM | cell death | 5.36% |
| Cc1[nH]c(C)c(-c2ccc(CCc3ccc(F)cc3F)cc2)c(=O)c1Cl | HEK293 | cell growth or viability |  | IC50 | > 10 µM |
| CC(=NNC(=O)c1ccccc1Br)c1ccc(Nc2nnc(-c3ccc(Cl)cc3)c3ccccc23)cc1 | MCF7 | cell growth or viability, MTT | 10 µM, 24 h | viability | 5.75% |
| Cc1cc([C@@H](C)Nc2ccccc2C(=O)O)c2nc(N3CCC(F)(F)CC3)c(C#N)c(=O)n2c1 | MAPK11 (Homo sapiens, UniProt Q15759) | binding, competition with immobilised ligand | 1 µM | remaining binding | 71% |

Repeated from above:
| SMILES | target or system | assay | setting | endpoint | value |
| --- | --- | --- | --- | --- | --- |
| O=C(Nc1ccc(Oc2nnc(-c3ccc(Cl)cc3)c3ccccc23)cc1)c1cccc([N+](=O)[O-])c1 | MCF7 | cell growth or viability, MTT | 78 nM, 24 h | viability | 95.7% |
| O=C(Nc1ccc(OC2CCN(Cc3ccc(F)cc3)C2)c(Cl)c1)c1cccs1 (stereo not drawn) | HEK293 | cell growth or viability |  | IC50 | > 10 µM |
| Cc1c(Cc2ccccc2)c(=O)oc2c(C)c(OCC(=O)NN=Cc3ccco3)ccc12 | PC-3 | cell growth or viability, MTT | 62.5 µg/mL | viability | 20.1% |
